# Published values pooled from the literature.
# Compare with care: the assays were run in different laboratories. ± marks the error that the study gave.
Substance,target or system,assay,system,conditions,how to read,quantity,value
insulin aspart,,ELISA,"human, adults with type 1 diabetes, up to 35 years, serum","subcutaneous, 0.2 U/kg",,time to early 50% Cmax,26.6 min
insulin aspart,,"ELISA, measured: total insulin aspart","human, type 1 diabetes, serum","subcutaneous, dose not given, least squares mean",,AUC(2 h-t),0.479 nM·h
ACEEQNPWARYLEWLFPTETLLLEL,,ex vivo fluorescence imaging,"peptide, BALB/c mice, 4T1 tumour-bearing, kidney","intravenous, 5 nmol, 24 h post-injection",higher = more uptake,mean fluorescence intensity,821 ± 122 a.u.
insulin icodec,,,human severe renal impairment,concentration not given,,participants with adverse events,50%
PMESGICTIV,human MAGI1-2/6 PDZ construct (MBP fusion),surface plasmon resonance,peptide,concentration not given,higher = stronger binding,normalised SPR binding response,0 normalised RU
human insulin,,ELISA,"pig, anaesthetized, serum","subcutaneous, 20 IU",,Tmax,3.78 ± 0.4 h
ACEQNPIYWARYADWLFTTPLLLLDLALLVDADEGT,,ex vivo fluorescence imaging,"peptide, BALB/c mice, 4T1 tumour-bearing","intravenous, 5 nmol, 4 h post-injection, background-corrected mean fluorescence",reference: tumour over muscle,contrast index,5.2 ± 0.6
pegcetacoplan,,measured: metabolism and nutrition disorders,patients with PNH,"dose not given, phase Ib trial",,number of TEAEs,5
Neuropeptide Y,,RP-HPLC,HALO C18 column,"25 µM, formic acid/methanol, 25 min gradient",,retention time,17.9 min
colistin,Acinetobacter baumannii,broth microdilution,clinical isolate RKI-No_377/15,,,MIC,1 µg/mL
GSGAGSETVV,human MAGI1-3/6 PDZ construct (MBP fusion),automated holdup,"peptide, crude extract","concentration not given, uncorrected, unit not given","reference: biotin control resin, higher = stronger binding",binding intensity,0.143
insulin degludec,,,human,"subcutaneous, 0.4 IU/kg, 1 FC level, single dose, reference formulation",,apparent volume of distribution,29.3 ± 8 L
YEQDPWGVKWWY,,,"peptide, mouse, CP model, serum","0.154 µmol/kg, 4 weeks",,serum blood urea nitrogen,no effect
ACDDQNPWRAYLDLLFPTDTLLLDLLW,,ex vivo fluorescence imaging,"peptide, BALB/c mice, 4T1 tumour-bearing, kidney","intravenous, 5 nmol, 2 h post-injection",higher = more uptake,mean fluorescence intensity,880 ± 51.2 a.u.
insulin aspart,,,"Japanese type 1 diabetes patients, serum free","subcutaneous, 0.2 U/kg single, up to 12 h, least squares mean",,AUC(0-t),0.646 nM·h
Ubiquitin fragment (Homo sapiens),,"NMR, measured: Lys63",,,,pKa,11
adrenomedullin,,RP-HPLC,HALO C18 column,"25 µM, acetic acid/methanol, 25 min gradient",,retention time,13 min

# Excerpt of the above:
Substance,target or system,assay,system,conditions,how to read,quantity,value
GSGAGSETVV,human MAGI1-3/6 PDZ construct (MBP fusion),automated holdup,"peptide, crude extract","concentration not given, uncorrected, unit not given","reference: biotin control resin, higher = stronger binding",binding intensity,0.143
insulin degludec,,,human,"subcutaneous, 0.4 IU/kg, 1 FC level, single dose, reference formulation",,apparent volume of distribution,29.3 ± 8 L
